Measurements gathered from unrelated publications.
Each line is one published result; not all experiments were run side by side.

SMILES | test | system | setting | how to read | stability
CC[C@@H](C)[C@@H](N)C(=O)N[C@@H](CC(C)C)C(=O)N[C@@H](CCCNC(=N)N)C(=O)N[C@@H](Cc1c[nH]c2ccccc12)C(=O)N[C@@H](CO)C(=O)N[C@@H](CCCNC(=N)N)C(=O)N[C@@H](CCCCN)C(N)=O |  | human plasma |  | time remaining stable | > 8 h
COc1cc2c(cc1OC)[C@@H]1Cc3ccc(OC)c(OC)c3CN1CC2 |  | mouse liver and kidney samples | freeze-thaw, autosampler, storage conditions |  | stable
Cc1ccc(CNC(=O)c2cc(/C=C/C(=O)O)cc(-c3ccc4ncnn4c3)c2)cc1 |  | simulated gastric fluid | 1 h |  | stable
CC[C@@H]([C@H](C)O)n1ncn(-c2ccc(N3CCN(c4ccc(OC[C@@H]5CO[C@@](Cn6cncn6)(c6ccc(F)cc6F)C5)cc4)CC3)cc2)c1=O |  | rat plasma | autosampler, freeze-thaw, short- and long-term storage |  | stable
C=C(NC(=O)c1csc(-c2nc3c(cc2O)-c2nc(cs2)C(=O)N[C@@H]([C@@H](C)O)C(=O)N/C(=C\C)c2nc(cs2)C(=O)N[C@H]2C[C@H](O)C(=O)OCc4cccc5[nH]c(c(C)c45)C(=O)SC[C@H](NC(=O)c4csc2n4)c2nc-3cs2)n1)C(N)=O | HPLC |  | 24 h, pH 2.0–7.0, 25 °C |  | stable
O=C(NCCN1CCCC1)c1cc(-c2ccc(CN3CCOCC3)cc2)nc2ccc(F)cc12 |  |  | 40 °C |  | > 25 weeks
CCC[C@H](N[C@@H](C)C(=O)N1[C@H](C(=O)O)C[C@@H]2CCCC[C@@H]21)C(=O)O |  | human plasma | 0.5 ng/mL, 30 h, 8 °C, autosampler, low QC |  | 97.3%
O=C(NCCc1c[nH]c2ccccc12)C(=O)c1c[nH]c2ccc(F)cc12 |  |  | up to 48 h, pH 4.5 |  | stable
CNC(=O)c1ccc(-c2nn3c(Cc4ccc5ncccc5c4)cnc3[nH]c2=O)cc1F |  | human plasma | ambient |  | ≥ 24.7 h
CN(CCC#N)C1CCN(C(=O)Cn2cc(NC(=O)c3cnn4cccnc34)c(-c3cc(Cl)ccc3OC(F)F)n2)CC1 |  | human plasma | 5 freeze-thaw cycles |  | stable
O=C(N/N=C/c1ccccc1O)c1ccncc1 |  | DMEM cell medium | 4 µM, 12 h, 5 °C, post-preparative, autosampler |  | 97.4%

Repeated from above:
SMILES | test | system | setting | how to read | stability
CCC[C@H](N[C@@H](C)C(=O)N1[C@H](C(=O)O)C[C@@H]2CCCC[C@@H]21)C(=O)O |  | human plasma | 0.5 ng/mL, 30 h, 8 °C, autosampler, low QC |  | 97.3%
